Results gathered from unrelated publications.
Numbered parts are unrelated; each lists some results of a single study. pIC50: −log10 of the molar value.
Sequence of UniProt P42336 (whole entry, unmodified, looked up): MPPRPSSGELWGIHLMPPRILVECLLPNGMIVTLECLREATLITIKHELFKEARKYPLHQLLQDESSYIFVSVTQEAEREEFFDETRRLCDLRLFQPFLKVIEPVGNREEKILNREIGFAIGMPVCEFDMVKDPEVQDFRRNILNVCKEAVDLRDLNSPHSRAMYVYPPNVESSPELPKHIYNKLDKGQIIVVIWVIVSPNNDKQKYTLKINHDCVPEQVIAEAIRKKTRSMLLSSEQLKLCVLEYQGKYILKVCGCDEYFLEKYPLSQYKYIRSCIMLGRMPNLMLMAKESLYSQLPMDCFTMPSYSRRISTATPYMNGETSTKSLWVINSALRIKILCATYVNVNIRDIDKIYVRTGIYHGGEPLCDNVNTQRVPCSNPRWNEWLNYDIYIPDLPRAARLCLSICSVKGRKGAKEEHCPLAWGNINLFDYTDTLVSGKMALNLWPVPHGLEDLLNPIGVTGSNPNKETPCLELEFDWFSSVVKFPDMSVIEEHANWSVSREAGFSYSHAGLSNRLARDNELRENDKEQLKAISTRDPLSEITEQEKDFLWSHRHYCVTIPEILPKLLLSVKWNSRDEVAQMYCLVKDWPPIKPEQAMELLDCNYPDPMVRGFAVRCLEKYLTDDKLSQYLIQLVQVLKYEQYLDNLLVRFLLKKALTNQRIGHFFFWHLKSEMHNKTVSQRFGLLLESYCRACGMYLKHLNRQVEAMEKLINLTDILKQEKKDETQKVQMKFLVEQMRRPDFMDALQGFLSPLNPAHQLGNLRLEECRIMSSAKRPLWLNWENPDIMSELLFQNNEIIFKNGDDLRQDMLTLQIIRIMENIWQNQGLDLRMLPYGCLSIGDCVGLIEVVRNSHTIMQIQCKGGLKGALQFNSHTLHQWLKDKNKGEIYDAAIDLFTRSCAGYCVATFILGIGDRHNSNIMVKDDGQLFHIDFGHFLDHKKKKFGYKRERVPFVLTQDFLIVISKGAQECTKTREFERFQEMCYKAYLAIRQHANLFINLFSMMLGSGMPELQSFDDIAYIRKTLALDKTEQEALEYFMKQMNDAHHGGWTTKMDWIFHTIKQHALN
Sequence of UniProt P46734 (whole entry, looked up): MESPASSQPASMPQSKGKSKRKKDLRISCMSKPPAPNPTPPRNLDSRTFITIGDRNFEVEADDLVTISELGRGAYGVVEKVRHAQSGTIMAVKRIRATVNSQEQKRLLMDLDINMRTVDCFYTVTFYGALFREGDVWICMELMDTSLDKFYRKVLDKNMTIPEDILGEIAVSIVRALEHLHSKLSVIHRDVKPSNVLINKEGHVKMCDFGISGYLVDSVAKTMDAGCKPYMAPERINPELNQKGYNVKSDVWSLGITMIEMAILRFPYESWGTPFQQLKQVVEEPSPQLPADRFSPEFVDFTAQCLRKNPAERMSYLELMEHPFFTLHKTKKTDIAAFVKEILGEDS

Sample 1 — observed: enzyme activity; action: inhibitor; tested at: 0.5 µM; baseline: control
Target: Tyrosine-protein kinase JAK2 (JAK2, Homo sapiens, UniProt O60674)
Sequence of UniProt O60674 (whole entry, looked up): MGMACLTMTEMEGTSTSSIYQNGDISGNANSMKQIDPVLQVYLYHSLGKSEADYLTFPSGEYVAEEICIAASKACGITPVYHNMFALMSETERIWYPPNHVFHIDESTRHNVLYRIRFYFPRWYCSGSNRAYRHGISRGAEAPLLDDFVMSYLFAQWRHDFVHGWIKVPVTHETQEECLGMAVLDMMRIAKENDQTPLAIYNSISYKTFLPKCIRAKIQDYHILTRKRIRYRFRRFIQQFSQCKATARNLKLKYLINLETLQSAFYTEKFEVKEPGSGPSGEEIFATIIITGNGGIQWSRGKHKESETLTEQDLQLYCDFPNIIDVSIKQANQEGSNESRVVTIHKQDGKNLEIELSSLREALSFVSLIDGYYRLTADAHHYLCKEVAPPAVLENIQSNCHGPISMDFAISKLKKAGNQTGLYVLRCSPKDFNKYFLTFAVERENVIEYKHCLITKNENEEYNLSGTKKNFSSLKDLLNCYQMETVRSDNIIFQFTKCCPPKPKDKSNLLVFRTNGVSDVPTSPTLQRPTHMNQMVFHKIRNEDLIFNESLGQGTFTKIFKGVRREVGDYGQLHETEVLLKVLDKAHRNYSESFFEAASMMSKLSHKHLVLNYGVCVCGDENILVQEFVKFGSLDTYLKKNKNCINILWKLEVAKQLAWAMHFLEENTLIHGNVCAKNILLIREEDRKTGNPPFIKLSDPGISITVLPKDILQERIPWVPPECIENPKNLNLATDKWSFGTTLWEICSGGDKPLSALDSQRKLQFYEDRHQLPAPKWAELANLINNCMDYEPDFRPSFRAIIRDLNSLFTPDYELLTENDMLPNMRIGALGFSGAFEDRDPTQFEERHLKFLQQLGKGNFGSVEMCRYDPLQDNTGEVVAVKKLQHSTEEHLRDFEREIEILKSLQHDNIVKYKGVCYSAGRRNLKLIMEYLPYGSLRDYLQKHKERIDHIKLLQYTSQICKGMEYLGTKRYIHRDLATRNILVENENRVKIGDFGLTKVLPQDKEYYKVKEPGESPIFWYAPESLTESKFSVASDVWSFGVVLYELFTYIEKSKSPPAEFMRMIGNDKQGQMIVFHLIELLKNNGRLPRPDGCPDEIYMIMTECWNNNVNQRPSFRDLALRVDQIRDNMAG
For `N#CC(=C(N)Sc1ccc(N)cc1)c1ccccc1C(F)(F)F`, the remaining activity was 98.7%.
For `Fc1ccc(-c2nc3n(c2-c2ccncc2)CCS3)cc1`, the remaining activity was 93.6%.
The remaining activity of `CC(C)(C)n1nc(Cc2cccc3ccccc23)c2c(N)ncnc21` is reported as 94.3%.
The remaining activity of `CSc1nc(-c2ccnc(N[C@@H](C)c3ccccc3)c2)c(-c2ccc(F)cc2)[nH]1` (racemic) is reported as 102%.
With `Cc1cncc2cccc(S(=O)(=O)N3CCCN(C(=O)CN)C[C@@H]3C)c12` the remaining activity was 93.9%.
With `COc1cc(Nc2c(C#N)cnc3cc(OCCCN4CCN(C)CC4)c(OC)cc23)c(Cl)cc1Cl` the remaining activity was 97.4%.
`Nc1ncnc2c1cnn2-c1ccccc1` has a remaining activity of 91.6%.
With `CC[n+]1c(/C=C/N(C)c2ccccc2)n(-c2ccccc2)c2ccc(-c3nc4ccccc4s3)cc21` the remaining activity was 98.8%.
`Cc1ccc(NC2=CC(=O)c3sc(C)nc3C2=O)cc1` gave a remaining activity of 99.1%.
The remaining activity of `CCCC(=O)Oc1ccc2[nH]c(C(=O)c3cc4ccccc4[nH]3)cc2c1` is reported as 106%.
The remaining activity of `COc1ccc(S(=O)(=O)N(CCO)c2ccccc2CN(C)CC=Cc2ccc(Cl)cc2)cc1` is reported as 98.4%.
For `O=S(=O)(NCCNC/C=C/c1ccc(Br)cc1)c1cccc2cnccc12`, the remaining activity was 109%.

Sample 2 — method: competition with immobilised ligand; tested at: 1 µM
SMILES: Cc1c(NC(=O)c2cc(C(N)=O)nc3cc(F)ccc23)c(C(F)(F)F)nn1Cc1ccc(C#N)cc1
It gave 100% for remaining binding (CSK (Homo sapiens, UniProt P41240); cell-free assay).
For OXSR1 (Homo sapiens, UniProt O95747); cell-free assay: remaining binding read 67%.
It gave 100% for remaining binding (PIM3 (Homo sapiens, UniProt Q86V86); cell-free assay).
RIOK2 (Homo sapiens, UniProt Q9BVS4); cell-free assay — remaining binding: 76%.
For EPHA3 (Homo sapiens, UniProt P29320); cell-free assay: remaining binding read 90%.
It gave 74% for remaining binding (ULK3 (Homo sapiens, UniProt Q6PHR2); cell-free assay).
It gave 81% for remaining binding (SIK3 (Homo sapiens, UniProt Q9Y2K2); cell-free assay).
For FGFR3 (Homo sapiens, UniProt P22607, G697C); cell-free assay: remaining binding read 89%.
It gave 91% for remaining binding (MAPK14 (Homo sapiens, UniProt Q16539); cell-free assay).
The remaining binding was 100% (PIK3CA (Homo sapiens, UniProt P42336); cell-free assay).
Tyrosine-protein kinase ABL1, phosphorylated (ABL1, Homo sapiens, UniProt P00519, E255K); binding — remaining binding: 76%.
For TLK1 (Homo sapiens, UniProt Q9UKI8); cell-free assay: remaining binding read 79%.
EPHA6 (Homo sapiens, UniProt Q9UF33); cell-free assay — remaining binding: 87%.
It gave 100% for remaining binding (ERBB2 (Homo sapiens, UniProt P04626); cell-free assay).
The remaining binding was 88% (MAP2K3 (Homo sapiens, UniProt P46734); cell-free assay).
MAPK15 (Homo sapiens, UniProt Q8TD08); cell-free assay — remaining binding: 100%.
For PHKG1 (Homo sapiens, UniProt Q16816); cell-free assay: remaining binding read 100%.
It gave 86% for remaining binding (MAPK12 (Homo sapiens, UniProt P53778); cell-free assay).
For PIK3CA (Homo sapiens, UniProt P42336, C420R); cell-free assay: remaining binding read 70%.

Sample 3 — SMILES: C=CCc1ccc(O)c(-c2cc(CC=C)ccc2O)c1; observed: chloride current; method: whole-cell voltage clamp
ANO1 del476-501/M544A: Anoctamin-1 (ANO1, Homo sapiens, UniProt Q5XXA6, del476-501/M544A)
Sequence of UniProt Q5XXA6 (whole entry, unmodified, looked up): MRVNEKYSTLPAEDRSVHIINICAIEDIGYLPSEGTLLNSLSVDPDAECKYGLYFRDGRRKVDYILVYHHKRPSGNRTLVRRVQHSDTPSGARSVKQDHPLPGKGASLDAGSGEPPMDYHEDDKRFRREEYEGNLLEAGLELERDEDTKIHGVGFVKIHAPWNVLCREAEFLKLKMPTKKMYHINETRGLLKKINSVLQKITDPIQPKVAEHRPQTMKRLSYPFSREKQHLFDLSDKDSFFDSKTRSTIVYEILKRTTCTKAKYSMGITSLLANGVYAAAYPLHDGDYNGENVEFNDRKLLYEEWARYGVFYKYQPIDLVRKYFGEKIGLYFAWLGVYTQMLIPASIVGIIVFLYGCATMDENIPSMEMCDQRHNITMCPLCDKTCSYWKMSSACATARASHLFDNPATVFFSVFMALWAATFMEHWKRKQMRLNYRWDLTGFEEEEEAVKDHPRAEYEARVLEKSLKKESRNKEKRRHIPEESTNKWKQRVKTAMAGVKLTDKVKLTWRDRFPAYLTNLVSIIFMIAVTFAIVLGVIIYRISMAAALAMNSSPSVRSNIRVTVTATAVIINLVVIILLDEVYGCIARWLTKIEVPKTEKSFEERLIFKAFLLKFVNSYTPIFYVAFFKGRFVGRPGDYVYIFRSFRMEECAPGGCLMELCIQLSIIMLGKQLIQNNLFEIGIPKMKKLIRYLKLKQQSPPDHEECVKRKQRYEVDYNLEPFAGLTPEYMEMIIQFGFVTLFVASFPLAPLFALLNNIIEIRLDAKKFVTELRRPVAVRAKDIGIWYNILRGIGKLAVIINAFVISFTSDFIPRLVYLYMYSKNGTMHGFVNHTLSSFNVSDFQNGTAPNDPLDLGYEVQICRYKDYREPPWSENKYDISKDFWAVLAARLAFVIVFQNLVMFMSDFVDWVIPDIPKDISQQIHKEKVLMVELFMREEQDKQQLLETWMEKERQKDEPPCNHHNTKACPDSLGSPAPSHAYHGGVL
Anoctamin-1 (ANO1, Homo sapiens, UniProt Q5XXA6, del476-501/K629I); inhibitor; 100 mV holding voltage — pIC50: 3.67.
The pIC50 was 4.00 (ANO1 del476-501/M544A; membrane voltage 100 mV).
Anoctamin-1 (ANO1, Homo sapiens, UniProt Q5XXA6, del476-501/M544T); inhibitor; 40 mV holding voltage — pIC50: 4.62.
It gave 4.27 for pIC50 (Anoctamin-1 (ANO1, Homo sapiens, UniProt Q5XXA6, del476-501/F627A); membrane voltage -100 mV).
For Anoctamin-1 (ANO1, Homo sapiens, UniProt Q5XXA6, del476-501/R541D); inhibitor; R515D mutant at -80 mV: pIC50 read 3.76.
ANO1 del476-501/M544A; membrane voltage 40 mV — pIC50: 4.09.
For ANO1 del476-501/M544A; membrane voltage -100 mV: pIC50 read 3.89.
Anoctamin-1 (ANO1, Homo sapiens, UniProt Q5XXA6, del476-501/F803A); membrane voltage -80 mV — pIC50: 4.18.

Sample 4 — method: logD(dd/w) and ALogP; notes: JT method
Under “lipophilic permeability efficiency”, `CC(C)C[C@@H]1NC(=O)[C@H](C)NC(=O)[C@H](Cc2cscn2)NC(=O)[C@H](CC(C)C)NC(=O)[C@H](C(C)C)NC(=O)[C@H](CC(C)C)NC(=O)[C@@H](CC(C)C)NC1=O` is recorded as 1.86.
`CC(C)C[C@@H]1NC(=O)[C@H](CC(C)C)NC(=O)[C@H](CC(C)C)NC(=O)[C@H](Cc2cscn2)NC(=O)[C@@H](Cc2cscn2)NC(=O)[C@@H](CC(C)C)NC(=O)[C@H](C)NC1=O`: “lipophilic permeability efficiency” 2.79.
`CC(C)C[C@@H]1NC(=O)[C@@H](C)NC(=O)[C@@H](CC(C)C)NC(=O)[C@@H](CC(C)C)NC(=O)[C@H](C)NC(=O)[C@H](CC(C)C)NC(=O)[C@@H](CC(C)C)NC1=O` — result for “lipophilic permeability efficiency”: 2.5.
Under “lipophilic permeability efficiency”, `CC(C)C[C@@H]1NC(=O)[C@H](CC(C)C)NC(=O)[C@H](CC(C)C)NC(=O)[C@H](CC(C)C)NC(=O)[C@@H](Cc2cscn2)NC(=O)[C@H](CCC(=O)N2CCCC2)NC(=O)[C@H](C)NC1=O` is recorded as 1.64.
For `CC(C)C[C@@H]1NC(=O)[C@H](CC(C)C)NC(=O)[C@H](CC(C)C)NC(=O)[C@H](C(C)C)NC(=O)[C@H](C)NC(=O)[C@@H](CC(C)C)NC(=O)[C@H](C)NC1=O`, “lipophilic permeability efficiency” read 2.7.
For `CC(C)C[C@@H]1NC(=O)[C@H](C)NC(=O)[C@H](Cc2cscn2)NC(=O)[C@H](CCC(=O)N2CCCC2)NC(=O)[C@H](CC(C)C)NC(=O)[C@H](CC(C)C)NC(=O)[C@@H](C(C)C)NC1=O`, “lipophilic permeability efficiency” read 1.48.
`CC(C)C[C@@H]1NC(=O)[C@H](CC(C)C)NC(=O)[C@@H](C(C)C)NC(=O)[C@H](C(C)C)NC(=O)[C@H](C(C)C)NC(=O)[C@H](C)NC(=O)[C@H](C)NC1=O`: “lipophilic permeability efficiency” 1.82.

Some of these lines once more (sample 3):
ANO1 del476-501/M544A; membrane voltage 40 mV — pIC50: 4.09.
For ANO1 del476-501/M544A; membrane voltage -100 mV: pIC50 read 3.89.
Anoctamin-1 (ANO1, Homo sapiens, UniProt Q5XXA6, del476-501/F803A); membrane voltage -80 mV — pIC50: 4.18.
